Experimental data collected from several papers.
Each numbered part is a random draw from the data of one study; scales do not carry over between parts. Values joined by “and” are separate records of one study, mostly repeats; a detail may differ.
UniProt Q12866, sequence (whole entry, looked up): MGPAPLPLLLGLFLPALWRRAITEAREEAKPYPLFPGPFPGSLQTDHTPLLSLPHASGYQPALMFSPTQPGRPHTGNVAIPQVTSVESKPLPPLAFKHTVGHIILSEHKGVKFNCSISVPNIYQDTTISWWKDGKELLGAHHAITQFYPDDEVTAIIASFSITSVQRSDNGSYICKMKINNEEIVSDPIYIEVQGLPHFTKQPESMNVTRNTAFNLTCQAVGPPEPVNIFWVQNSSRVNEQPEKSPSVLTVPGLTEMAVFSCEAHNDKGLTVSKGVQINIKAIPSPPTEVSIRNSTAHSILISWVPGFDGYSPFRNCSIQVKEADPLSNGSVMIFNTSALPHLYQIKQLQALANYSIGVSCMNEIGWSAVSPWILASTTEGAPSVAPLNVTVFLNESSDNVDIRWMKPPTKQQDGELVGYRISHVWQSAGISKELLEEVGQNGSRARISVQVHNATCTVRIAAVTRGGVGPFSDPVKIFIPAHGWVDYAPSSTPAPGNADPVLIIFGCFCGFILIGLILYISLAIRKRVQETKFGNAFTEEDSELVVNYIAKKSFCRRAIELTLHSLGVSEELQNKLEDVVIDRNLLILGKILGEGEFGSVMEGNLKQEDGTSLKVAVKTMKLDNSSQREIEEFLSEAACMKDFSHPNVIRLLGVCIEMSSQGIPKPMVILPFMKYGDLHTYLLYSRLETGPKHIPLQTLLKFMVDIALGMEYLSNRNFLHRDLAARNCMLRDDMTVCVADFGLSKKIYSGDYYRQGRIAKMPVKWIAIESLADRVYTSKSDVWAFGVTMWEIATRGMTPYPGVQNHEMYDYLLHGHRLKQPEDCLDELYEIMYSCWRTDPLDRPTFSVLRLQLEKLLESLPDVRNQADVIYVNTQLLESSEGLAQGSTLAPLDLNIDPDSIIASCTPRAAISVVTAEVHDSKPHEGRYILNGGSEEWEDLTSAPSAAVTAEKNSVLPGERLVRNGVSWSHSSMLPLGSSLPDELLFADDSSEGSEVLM
UniProt Q99558, sequence (whole entry, looked up): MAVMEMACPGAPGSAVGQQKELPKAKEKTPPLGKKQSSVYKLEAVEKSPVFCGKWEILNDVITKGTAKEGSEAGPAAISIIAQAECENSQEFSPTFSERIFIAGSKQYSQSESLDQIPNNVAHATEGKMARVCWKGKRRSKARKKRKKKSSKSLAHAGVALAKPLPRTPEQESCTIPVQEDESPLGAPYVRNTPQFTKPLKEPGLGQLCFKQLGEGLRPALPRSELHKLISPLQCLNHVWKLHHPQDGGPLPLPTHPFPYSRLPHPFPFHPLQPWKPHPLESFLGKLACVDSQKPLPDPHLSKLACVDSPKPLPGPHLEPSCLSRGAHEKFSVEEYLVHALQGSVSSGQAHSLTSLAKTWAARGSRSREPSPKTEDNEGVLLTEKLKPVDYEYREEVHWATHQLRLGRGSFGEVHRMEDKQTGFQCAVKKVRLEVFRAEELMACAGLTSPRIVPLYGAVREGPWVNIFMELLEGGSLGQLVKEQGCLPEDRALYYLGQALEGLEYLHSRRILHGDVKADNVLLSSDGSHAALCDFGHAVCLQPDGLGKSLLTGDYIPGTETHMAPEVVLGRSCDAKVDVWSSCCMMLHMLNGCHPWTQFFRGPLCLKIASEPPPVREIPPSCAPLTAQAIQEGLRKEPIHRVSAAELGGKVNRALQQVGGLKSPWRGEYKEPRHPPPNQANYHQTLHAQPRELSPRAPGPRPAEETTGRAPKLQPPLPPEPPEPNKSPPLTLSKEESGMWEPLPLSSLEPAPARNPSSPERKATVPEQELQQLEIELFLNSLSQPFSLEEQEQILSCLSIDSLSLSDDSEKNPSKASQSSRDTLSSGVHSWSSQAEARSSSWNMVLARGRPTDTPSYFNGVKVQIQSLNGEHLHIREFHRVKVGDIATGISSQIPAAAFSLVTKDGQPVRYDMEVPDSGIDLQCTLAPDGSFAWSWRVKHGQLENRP
UniProt P27361, sequence (whole entry, looked up): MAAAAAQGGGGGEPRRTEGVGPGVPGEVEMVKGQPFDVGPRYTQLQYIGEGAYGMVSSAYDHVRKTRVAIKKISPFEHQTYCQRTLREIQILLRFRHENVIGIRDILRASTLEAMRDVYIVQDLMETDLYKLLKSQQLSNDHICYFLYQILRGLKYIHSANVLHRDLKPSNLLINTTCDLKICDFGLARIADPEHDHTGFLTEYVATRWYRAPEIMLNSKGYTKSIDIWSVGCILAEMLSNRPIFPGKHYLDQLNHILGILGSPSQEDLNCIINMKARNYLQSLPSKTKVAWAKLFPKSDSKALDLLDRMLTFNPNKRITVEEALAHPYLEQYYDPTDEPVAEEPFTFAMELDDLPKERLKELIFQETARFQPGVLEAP
UniProt P29320, sequence (whole entry, looked up): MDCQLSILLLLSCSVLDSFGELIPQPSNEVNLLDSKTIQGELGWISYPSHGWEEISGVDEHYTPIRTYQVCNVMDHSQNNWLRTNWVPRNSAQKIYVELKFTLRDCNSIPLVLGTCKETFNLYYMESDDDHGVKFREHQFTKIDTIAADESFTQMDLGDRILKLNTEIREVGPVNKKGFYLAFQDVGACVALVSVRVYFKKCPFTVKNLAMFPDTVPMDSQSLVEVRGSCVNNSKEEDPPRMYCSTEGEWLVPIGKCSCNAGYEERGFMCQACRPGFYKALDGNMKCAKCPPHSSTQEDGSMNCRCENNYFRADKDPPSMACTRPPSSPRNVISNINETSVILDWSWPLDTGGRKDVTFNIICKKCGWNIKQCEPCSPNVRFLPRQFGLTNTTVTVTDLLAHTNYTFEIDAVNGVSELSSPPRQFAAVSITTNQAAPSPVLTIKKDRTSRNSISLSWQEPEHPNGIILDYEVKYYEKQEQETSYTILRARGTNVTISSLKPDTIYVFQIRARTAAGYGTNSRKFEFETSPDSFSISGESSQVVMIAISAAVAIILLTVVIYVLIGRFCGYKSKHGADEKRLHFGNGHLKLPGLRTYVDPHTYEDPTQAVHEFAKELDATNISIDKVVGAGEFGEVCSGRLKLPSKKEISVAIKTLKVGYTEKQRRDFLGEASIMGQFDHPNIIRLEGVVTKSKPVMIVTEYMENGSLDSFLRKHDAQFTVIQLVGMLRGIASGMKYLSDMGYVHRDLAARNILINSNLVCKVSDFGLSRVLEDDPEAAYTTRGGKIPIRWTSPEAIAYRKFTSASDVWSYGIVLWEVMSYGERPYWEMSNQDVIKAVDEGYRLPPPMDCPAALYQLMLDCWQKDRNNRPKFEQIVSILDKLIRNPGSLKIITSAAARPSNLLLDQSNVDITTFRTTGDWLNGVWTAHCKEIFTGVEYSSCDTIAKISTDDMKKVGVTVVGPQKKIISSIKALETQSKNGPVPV
UniProt P30291, sequence (whole entry, looked up): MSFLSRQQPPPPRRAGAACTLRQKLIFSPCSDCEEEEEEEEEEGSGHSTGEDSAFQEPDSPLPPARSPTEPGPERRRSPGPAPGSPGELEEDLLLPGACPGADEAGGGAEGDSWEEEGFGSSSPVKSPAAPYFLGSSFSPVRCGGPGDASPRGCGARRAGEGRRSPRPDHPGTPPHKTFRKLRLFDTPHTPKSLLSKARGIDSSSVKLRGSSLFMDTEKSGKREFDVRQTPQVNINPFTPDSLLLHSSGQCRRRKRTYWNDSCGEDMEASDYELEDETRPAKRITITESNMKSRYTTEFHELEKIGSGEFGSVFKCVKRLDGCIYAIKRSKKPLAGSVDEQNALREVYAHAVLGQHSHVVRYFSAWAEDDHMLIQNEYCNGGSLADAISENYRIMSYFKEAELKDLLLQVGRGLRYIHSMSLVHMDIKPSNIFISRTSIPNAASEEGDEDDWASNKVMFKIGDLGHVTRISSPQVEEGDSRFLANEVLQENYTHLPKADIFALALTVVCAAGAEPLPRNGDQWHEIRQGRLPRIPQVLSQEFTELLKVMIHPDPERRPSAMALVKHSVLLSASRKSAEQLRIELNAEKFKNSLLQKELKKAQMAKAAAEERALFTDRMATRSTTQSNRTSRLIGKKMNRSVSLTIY
UniProt P54753, sequence (whole entry, looked up): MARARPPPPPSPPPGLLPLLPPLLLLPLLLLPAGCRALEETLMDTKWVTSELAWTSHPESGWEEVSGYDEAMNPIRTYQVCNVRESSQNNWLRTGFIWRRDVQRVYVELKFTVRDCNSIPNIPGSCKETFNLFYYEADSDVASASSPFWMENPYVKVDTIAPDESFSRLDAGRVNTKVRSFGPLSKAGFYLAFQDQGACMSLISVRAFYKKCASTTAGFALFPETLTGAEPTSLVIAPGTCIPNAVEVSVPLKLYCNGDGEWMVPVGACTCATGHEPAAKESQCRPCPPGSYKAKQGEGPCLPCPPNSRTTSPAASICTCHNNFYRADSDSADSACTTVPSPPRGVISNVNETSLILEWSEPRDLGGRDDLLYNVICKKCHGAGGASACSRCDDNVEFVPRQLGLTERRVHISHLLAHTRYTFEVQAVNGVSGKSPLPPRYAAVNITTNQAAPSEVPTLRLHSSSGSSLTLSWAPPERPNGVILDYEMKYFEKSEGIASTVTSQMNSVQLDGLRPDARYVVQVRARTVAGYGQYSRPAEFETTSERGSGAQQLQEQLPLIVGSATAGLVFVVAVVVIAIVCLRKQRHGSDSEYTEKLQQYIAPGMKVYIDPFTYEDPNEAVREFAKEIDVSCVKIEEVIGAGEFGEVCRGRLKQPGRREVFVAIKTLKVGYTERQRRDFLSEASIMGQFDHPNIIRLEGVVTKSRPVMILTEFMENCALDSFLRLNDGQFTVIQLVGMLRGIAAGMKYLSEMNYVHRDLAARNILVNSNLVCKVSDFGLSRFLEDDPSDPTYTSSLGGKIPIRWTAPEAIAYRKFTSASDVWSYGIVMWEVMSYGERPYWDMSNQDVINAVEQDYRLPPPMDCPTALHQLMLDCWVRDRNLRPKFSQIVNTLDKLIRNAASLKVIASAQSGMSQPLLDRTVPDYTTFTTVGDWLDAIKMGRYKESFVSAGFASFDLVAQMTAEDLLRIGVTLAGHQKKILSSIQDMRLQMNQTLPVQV

Set 1 — observed: cell-free assay; method: competition with immobilised ligand; tested at: 1 µM
SMILES: CS(=O)(=O)c1cc(C2(NC(=O)c3cncc4c3cnn4-c3ccc(F)cc3)CC2)ccn1
target	remaining binding
EPHB3 (Homo sapiens, UniProt P54753)	100%
NUAK2 (Homo sapiens, UniProt Q9H093)	100%
ALK (Homo sapiens, UniProt Q9UM73, C1156Y)	100%

Set 2 — cell line: HaCaT; tested at: 100 µM; time: 36 h
SMILES	viability [%]
COc1ccc(CN=c2[nH]c(N3CCC[C@H]3CO)ncc2C(=O)NCc2ncccn2)cc1Cl	54.3
NC12CC3CC(CC(C3)C1)C2	92.4
O=C1OC(CN2CCOCC2)CN1/N=C/c1ccc([N+](=O)[O-])o1 (centres unmarked)	58.8
CCOC(CN1CCN(CC(C)C(=O)c2ccccc2)CC1)c1ccccc1 (centres unmarked)	85.7

Set 3 — observed: enzyme activity; action: inhibitor; tested at: 0.5 µM; relative to: control
SMILES: NC(=O)c1cccc(-c2cc(Nc3ccc(OC(F)(F)F)cc3)ncn2)c1
target	remaining activity [%]
MERTK (Homo sapiens, UniProt Q12866)	98.1
TAOK2 (Homo sapiens, UniProt Q9UL54)	91
MAPKAPK2 (Homo sapiens, UniProt P49137)	97.3
EPHA3 (Homo sapiens, UniProt P29320)	97.5
ACVR1B (Homo sapiens, UniProt P36896)	103
MAP3K5 (Homo sapiens, UniProt Q99683)	90.3
TBK1 (Homo sapiens, UniProt Q9UHD2)	92.4
MST1R (Homo sapiens, UniProt Q04912)	111
MAPK3 (Homo sapiens, UniProt P27361)	94.5
NEK6 (Homo sapiens, UniProt Q9HC98)	97.4
MAP3K14 (Homo sapiens, UniProt Q99558)	103
WEE1 (Homo sapiens, UniProt P30291)	98.9
GRK7 (Homo sapiens, UniProt Q8WTQ7)	97.1

Set 4 — cell line: mouse MPNST tumor cells; method: high-content immunofluorescence imaging; measured: nuclear SOX9; tested at: 10 µM; time: 12 h; setting: mean of 2 replicates; relative to: DMSO control; direction: higher = more nuclear SOX9
SMILES	nuclear SOX9 intensity
COc1cnc(NS(=O)(=O)c2ccc(N)cc2)nc1	96.8 % of DMSO
O=C(NCC1(N2CCN(c3ccccc3)CC2)CCOCC1)c1cccnc1Sc1ccccc1	101 % of DMSO
O=C(NC1CCC1)c1ccc(C#Cc2cccc(F)c2)nc1	89.6 % of DMSO
CN(CCCN1c2ccccc2CCc2ccccc21)CC(=O)c1ccc(Cl)cc1	95.6 % of DMSO
CS(=O)(=O)c1ccc([C@@H](O)[C@@H](CO)NC(=O)C(Cl)Cl)cc1	106 % of DMSO

Further values, each from its own experiment
SMILES	cell line	test	setting	how to read	endpoint	value
CC1=C(/C=C/C(C)=C/C=C/C(C)=C/C(=O)O)C(C)(C)CCC1	HuT78	trypan blue count	concentration not given	relative to: vehicle	relative cell number	0.565 and 0.494 and 0.575

A few entries again (set 4):
SMILES	nuclear SOX9 intensity
O=C(NCC1(N2CCN(c3ccccc3)CC2)CCOCC1)c1cccnc1Sc1ccccc1	101 % of DMSO
O=C(NC1CCC1)c1ccc(C#Cc2cccc(F)c2)nc1	89.6 % of DMSO
COc1cnc(NS(=O)(=O)c2ccc(N)cc2)nc1	96.8 % of DMSO
